Published values collected from several papers.
Parts stem from different laboratories: compare values within a part only. Positions count from the first letter of the parent shown.

Block 1
Target: RING finger protein unkempt homolog, zinc fingers 1-6, GST-SBP tag (UNK, Homo sapiens, UniProt Q9C0B0, residues 30-357)
Chain of UniProt Q9C0B0 (30-357, looked up): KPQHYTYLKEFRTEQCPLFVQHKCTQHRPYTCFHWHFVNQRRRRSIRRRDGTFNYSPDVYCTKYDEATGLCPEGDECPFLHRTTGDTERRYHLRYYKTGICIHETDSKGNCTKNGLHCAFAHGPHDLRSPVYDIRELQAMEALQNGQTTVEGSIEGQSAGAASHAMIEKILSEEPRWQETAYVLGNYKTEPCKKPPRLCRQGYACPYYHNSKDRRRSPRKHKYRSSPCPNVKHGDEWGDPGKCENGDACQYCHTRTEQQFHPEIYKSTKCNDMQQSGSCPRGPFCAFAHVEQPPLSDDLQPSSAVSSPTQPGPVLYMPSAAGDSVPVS
Method: RNA Bind-n-Seq
Molecule type: RNA
Medium: in vitro
Tested at: not given
Setting: RNA with constant flanks, human-mouse chimeric sites, ends assumed
Reference: input RNA pool
Direction: higher = stronger binding
Strand | bound/input enrichment
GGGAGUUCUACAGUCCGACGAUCUUUGUAAUAUCUGUAAAAGGUUCCCCCCCCUACUGUCCAAAAAAUAUGCAUGUAUAGUAAUUAGGACUUCAUUCCUCCAUGUUUUCUUCCCUUAUCUUACUGUCAUUGUCCUUAAACCUUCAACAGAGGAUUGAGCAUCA | 1.63 ratio
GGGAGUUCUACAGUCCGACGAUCUCUUUAAAAAAAAAAUUACCUUUUCUGCAUAUUAUAGCCCUCCCAUAGAUCCACGUUCAAGCUCAAAGAGCAAAGGCUUUGCACGGAGCUCAAACAUCUGAUGAAGAAAGAUUUCUGAGACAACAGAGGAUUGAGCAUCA | 4.02 ratio
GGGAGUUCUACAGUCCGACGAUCGUCAACAGCUGCCUCAACCCCAUCCUCUACGCCUUCCUGGAUGAGAACUUCAAGGCCUGCUUUAGAAAGUUCUGCUGUGCUUCUGCCCUGCGCCGGGACGUGCAGGUGUCUGACCGCGUGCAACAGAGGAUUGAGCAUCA | 0.372 ratio
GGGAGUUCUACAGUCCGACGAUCGGAAGUACAUUAAUGGAGAUUGAUGGUGACAAAGGCAAGCAGGGCGGGCCCACCUACUACAUAGACACCAAUGCCCUGCGUGUUCCGAGGGAGAACAUGGAGGCCAUCUCACCACUCAAGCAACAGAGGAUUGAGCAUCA | 0.253 ratio
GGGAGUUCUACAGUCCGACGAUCAUGGUUGUGAAAGGUGUGAUCUAAAAACAAGAUGACUUUUCCUGGCACAUAUUCCAAAGCAAAGACUUUGUUGCCUGCUGCUUAUUGUCUAAUUUACAGGGAUAUUUAAUUUUGUCAGGUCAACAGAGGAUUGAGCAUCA | 0.198 ratio
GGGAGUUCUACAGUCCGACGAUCUGUGCAUAUGAUGCUUGAGAUGGUUUUUGCAAAAGCAGAAAUCGCUGCAAGGUAAUCACAAUAGAUAAAAGUGGUAUUUUAAACCUUUGAAAGGAAUGGAUGUAACUGUACCUUGGUACACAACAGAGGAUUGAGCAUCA | 0.334 ratio
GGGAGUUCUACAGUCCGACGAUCGAAUCCUCCCGUGCAAAAUUUUGCAACACCAAGCUCACAGCAGCAGCAUCUUAGUCACAGUAGGGUAGUUUUGGGGCUCUGUGGCCAGGGUUUUAUUCACAUGCAGGUUUUGAAAAUGUACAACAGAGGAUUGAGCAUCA | 1.94 ratio
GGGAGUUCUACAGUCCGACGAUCCUGGCCUGGCCCUCCCCAGGGGCCUCCUUUCGUAUAGUAACUGUCAGUGCAUCAGAUACUUUCAGCUGCAACUCCCUACUGGGUGGGGCACCCAUUUCAGGCAGAAGGUUUUGGUACCCUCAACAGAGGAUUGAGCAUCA | 0.368 ratio
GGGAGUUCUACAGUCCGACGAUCGGCCUGGGACCGUCCUGGGCUAGUACAAUAGCGGCAGUGGAGGCUCAGAGAGGAAAGUUUGUUAGUGGAGGCAGUGGUAGAGGCCGUCAUGUACGGUCCUUUACUCGAUAGAUGUGUUCUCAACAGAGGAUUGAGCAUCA | 0.627 ratio
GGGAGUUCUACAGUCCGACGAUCCACAGAGGAGAUCUGCUGUUCCUCACGAAUUUCCGGGAAGACCCAAUCAGAGCUGGUGAAAUAGUUGUUUUUAAGGUUGAAGGAAGAGACAUUCCAAUAGUUCACAGAGUAAUCAAGGUUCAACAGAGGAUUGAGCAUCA | 1.34 ratio
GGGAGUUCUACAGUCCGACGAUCUUUCUACUGCAGCAAACGAUGCUAAGAAUUAAGGAUCCUAAGAAGUCCCUGGAUUUUUAUACUAGAGUUCUUGGACUGACCCUCCUGCAGAAGCUUGAUUUUCCCAUUAUGAAGUUCUCGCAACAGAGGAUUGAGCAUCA | 0.414 ratio

Block 2
Target: HLF, bZIP domain (human)
Method: DHFR protein complementation
Medium: yeast
Setting: single substitutions, most at no-binding floor
Reference: wild-type JUN-FOS pair
Direction: higher = stronger binding
Starting sequence: JUN, bZIP domain (human); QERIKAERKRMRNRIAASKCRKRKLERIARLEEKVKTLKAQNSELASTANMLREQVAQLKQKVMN; partner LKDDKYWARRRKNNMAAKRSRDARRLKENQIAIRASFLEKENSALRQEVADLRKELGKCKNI
Variant | binding fitness
K39V | -1.34 natural log
L45P | -1.54 natural log
L31K | -1.54 natural log
A40M | -1.29 natural log
A46R | -1.27 natural log
E54N | -1.47 natural log
I28Y | -1.45 natural log
L38S | -1.46 natural log
Q41K | -1.46 natural log
S47E | -1.29 natural log
S43E | -1.33 natural log
L52Y | -1.44 natural log
E32T | -1.39 natural log
A57E | -1.39 natural log
K34Y | -1.37 natural log
L52V | -1.41 natural log
L52K | -1.47 natural log
K36Y | -1.45 natural log
V56P | -1.55 natural log
N42D | -1.47 natural log
L31C | -1.36 natural log
S47K | -1.24 natural log
M51T | -1.31 natural log
L45F | -1.44 natural log
V35A | -1.49 natural log

Block 3
Target: ABI1, truncated, D143A, DHFR fusion (Arabidopsis thaliana)
Method: DHFR PCA, deep sequencing
Medium: yeast
Setting: methotrexate growth selection, single substitutions
Together with: (+)-ABA 2500 µM
Reference: wild-type fitted maximum
Direction: higher = stronger binding
Starting sequence: PYL1, truncated, DHFR fusion (Arabidopsis thaliana); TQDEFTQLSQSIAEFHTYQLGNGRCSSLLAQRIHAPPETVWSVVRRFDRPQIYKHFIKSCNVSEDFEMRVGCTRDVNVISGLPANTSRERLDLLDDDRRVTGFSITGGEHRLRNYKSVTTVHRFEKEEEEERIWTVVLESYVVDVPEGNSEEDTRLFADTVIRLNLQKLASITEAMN; partner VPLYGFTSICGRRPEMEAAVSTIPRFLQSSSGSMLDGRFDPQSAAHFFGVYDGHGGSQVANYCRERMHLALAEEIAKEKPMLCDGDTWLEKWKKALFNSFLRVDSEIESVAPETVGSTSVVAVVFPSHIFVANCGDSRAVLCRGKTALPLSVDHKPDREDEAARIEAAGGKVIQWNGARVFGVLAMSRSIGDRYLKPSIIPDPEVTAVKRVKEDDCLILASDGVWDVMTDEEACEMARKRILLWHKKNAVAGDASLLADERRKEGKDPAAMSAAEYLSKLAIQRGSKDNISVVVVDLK
Variant | relative binding score
F56L | 94.2%
Q19E | 97.4%
R163H | 88.6%
K58S | 94.1%
Q7C | 103%
R111F | 69.2%
N165S | 71.1%
A13T | 91.1%
R98M | 104%
F66N | 96.1%
H34L | 98.5%
N114E | 90.6%
M176F | 88.9%
D92I | 87.1%
L93Y | 103%
E139N | 95.7%
I105V | 105%

Block 4
Target: Histone acetyltransferase KAT6A, winged helix 1, GST fusion (KAT6A, Homo sapiens, UniProt Q92794, residues 1-85)
Method: protein binding microarray
Molecule type: double-stranded DNA, one strand shown
Medium: in vitro
Tested at: not given
Setting: 8-mer, flanks averaged, mean of 2 arrays, mostly near background
Reference: not given
Direction: higher = stronger binding
Residues (chain): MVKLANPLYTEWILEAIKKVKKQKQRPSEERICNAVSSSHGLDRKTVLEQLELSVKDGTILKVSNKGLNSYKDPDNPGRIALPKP
Strand | E-score
ATGTAGCC | -0.0138
ATTCATGA | -0.123
TTAAGAAA | -0.171
CGAGGTAC | -0.0563
AGGTGTCC | 0.00246
ACTAGAGA | -0.046
AGTTCACA | -0.202
CTTCGCTA | -0.191
AGAAACTC | -0.0925
ACACGGAC | 0.215
CCGGGGGA | 0.305
CCGACTCG | 0.0877
CTGCGTAA | 0.226
AGCGCATA | 0.24
ATTACTGG | -0.158
GCTTGTTA | -0.0511
GCTCTGAA | -0.0384

Block 5
Target: CCNA2, cyclin fold, Cln2 fusion (human)
Method: yeast growth competition, sequencing
Medium: yeast
Setting: weak parent motif
Reference: not given
Direction: higher = stronger binding
Starting sequence: SLBP docking peptide (human); ARYKRKLLINDFG
Variant | normalised enrichment score
K4S | 0.238
N10H | 1.05
D11G | 1.2
D11K | 1.4
I9E | 1.23
N10Q | 1.24
D11A | 2.11
R2A | 0.573
L8I | 1.5
L7H | 1.43
Y3K | 0.769
K6E | 1.54
D11N | 0.464
R5S | 1.53
A1M | 1.77
D11S | 1.44
Y3P | 0.669
R5L | 1.7
D11V | 1.99
I9A | 0.0221
R5H | 1.03
N10R | 0.906
Y3G | 0.509
Y3F | 1.04
N10S | 1.13

Some of these lines once more (block 1):
Strand | bound/input enrichment
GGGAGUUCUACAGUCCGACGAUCUUUGUAAUAUCUGUAAAAGGUUCCCCCCCCUACUGUCCAAAAAAUAUGCAUGUAUAGUAAUUAGGACUUCAUUCCUCCAUGUUUUCUUCCCUUAUCUUACUGUCAUUGUCCUUAAACCUUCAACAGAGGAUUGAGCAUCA | 1.63 ratio
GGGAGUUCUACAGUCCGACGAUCUCUUUAAAAAAAAAAUUACCUUUUCUGCAUAUUAUAGCCCUCCCAUAGAUCCACGUUCAAGCUCAAAGAGCAAAGGCUUUGCACGGAGCUCAAACAUCUGAUGAAGAAAGAUUUCUGAGACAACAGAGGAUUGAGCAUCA | 4.02 ratio
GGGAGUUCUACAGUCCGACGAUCGUCAACAGCUGCCUCAACCCCAUCCUCUACGCCUUCCUGGAUGAGAACUUCAAGGCCUGCUUUAGAAAGUUCUGCUGUGCUUCUGCCCUGCGCCGGGACGUGCAGGUGUCUGACCGCGUGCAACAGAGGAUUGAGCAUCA | 0.372 ratio
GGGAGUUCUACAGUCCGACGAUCGGAAGUACAUUAAUGGAGAUUGAUGGUGACAAAGGCAAGCAGGGCGGGCCCACCUACUACAUAGACACCAAUGCCCUGCGUGUUCCGAGGGAGAACAUGGAGGCCAUCUCACCACUCAAGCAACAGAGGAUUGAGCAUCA | 0.253 ratio
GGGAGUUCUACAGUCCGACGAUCAUGGUUGUGAAAGGUGUGAUCUAAAAACAAGAUGACUUUUCCUGGCACAUAUUCCAAAGCAAAGACUUUGUUGCCUGCUGCUUAUUGUCUAAUUUACAGGGAUAUUUAAUUUUGUCAGGUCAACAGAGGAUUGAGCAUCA | 0.198 ratio
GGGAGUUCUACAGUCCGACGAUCUGUGCAUAUGAUGCUUGAGAUGGUUUUUGCAAAAGCAGAAAUCGCUGCAAGGUAAUCACAAUAGAUAAAAGUGGUAUUUUAAACCUUUGAAAGGAAUGGAUGUAACUGUACCUUGGUACACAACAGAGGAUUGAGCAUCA | 0.334 ratio
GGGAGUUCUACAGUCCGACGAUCGAAUCCUCCCGUGCAAAAUUUUGCAACACCAAGCUCACAGCAGCAGCAUCUUAGUCACAGUAGGGUAGUUUUGGGGCUCUGUGGCCAGGGUUUUAUUCACAUGCAGGUUUUGAAAAUGUACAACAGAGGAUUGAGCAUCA | 1.94 ratio
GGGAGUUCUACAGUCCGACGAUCCUGGCCUGGCCCUCCCCAGGGGCCUCCUUUCGUAUAGUAACUGUCAGUGCAUCAGAUACUUUCAGCUGCAACUCCCUACUGGGUGGGGCACCCAUUUCAGGCAGAAGGUUUUGGUACCCUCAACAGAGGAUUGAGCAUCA | 0.368 ratio
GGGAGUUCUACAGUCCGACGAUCGGCCUGGGACCGUCCUGGGCUAGUACAAUAGCGGCAGUGGAGGCUCAGAGAGGAAAGUUUGUUAGUGGAGGCAGUGGUAGAGGCCGUCAUGUACGGUCCUUUACUCGAUAGAUGUGUUCUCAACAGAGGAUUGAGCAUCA | 0.627 ratio
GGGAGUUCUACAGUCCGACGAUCCACAGAGGAGAUCUGCUGUUCCUCACGAAUUUCCGGGAAGACCCAAUCAGAGCUGGUGAAAUAGUUGUUUUUAAGGUUGAAGGAAGAGACAUUCCAAUAGUUCACAGAGUAAUCAAGGUUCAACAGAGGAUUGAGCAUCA | 1.34 ratio
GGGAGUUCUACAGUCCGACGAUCUUUCUACUGCAGCAAACGAUGCUAAGAAUUAAGGAUCCUAAGAAGUCCCUGGAUUUUUAUACUAGAGUUCUUGGACUGACCCUCCUGCAGAAGCUUGAUUUUCCCAUUAUGAAGUUCUCGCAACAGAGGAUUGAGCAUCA | 0.414 ratio
